# Measured values of several laboratories.
# Every numbered part comes from another study and shows a few of its results, in no order.

# Series 1
# Target: Histone acetyltransferase KAT6A, winged helix 2, GST fusion (KAT6A, Homo sapiens, UniProt Q92794, residues 85-181)
# Technique: protein binding microarray
# Form: double-stranded DNA, one strand shown
# Medium: in vitro
# Concentration: not given
# Notes: 8-mer, flanks averaged, mean of 2 arrays, mostly near background
# Baseline: not given
# Direction: higher = stronger binding
# Target sequence (chain): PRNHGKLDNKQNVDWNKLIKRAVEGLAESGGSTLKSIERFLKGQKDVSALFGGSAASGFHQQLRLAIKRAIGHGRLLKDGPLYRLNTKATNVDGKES
Oligonucleotide,E-score
ACCTTAAC,-0.213
ACGCGAGG,-0.0246
ACTAACCA,0.125
CGCTCGTC,0.11
CCGGATGA,0.182
GACGTAGA,-0.162
AATGCCAG,0.0258
ATATGACG,0.0247
GATACTCC,0.101
GGTCTAAC,-0.053
ACACAAAC,0.0314
TAAATGTA,-0.158
AGGCTCCC,0.0333
CCCTAGCC,-0.0765
AGCTATAG,-0.178
TATGATCA,0.0767
ATTCACGG,0.0508
GTGCACAA,-0.0738
CATGAACG,0.0214
CGGTCTGC,0.145
AACGAGAG,0.14
AAATTACA,0.00498
GAGTATCA,-0.0276

# Series 2
# Target: RING finger protein unkempt homolog, zinc fingers 1-6, GST-SBP tag (UNK, Homo sapiens, UniProt Q9C0B0, residues 30-357)
# Technique: RNA Bind-n-Seq
# Form: RNA
# Medium: in vitro
# Concentration: not given
# Notes: RNA with constant flanks, human and mouse sites, ends assumed
# Baseline: input RNA pool
# Direction: higher = stronger binding
# Construct (chain): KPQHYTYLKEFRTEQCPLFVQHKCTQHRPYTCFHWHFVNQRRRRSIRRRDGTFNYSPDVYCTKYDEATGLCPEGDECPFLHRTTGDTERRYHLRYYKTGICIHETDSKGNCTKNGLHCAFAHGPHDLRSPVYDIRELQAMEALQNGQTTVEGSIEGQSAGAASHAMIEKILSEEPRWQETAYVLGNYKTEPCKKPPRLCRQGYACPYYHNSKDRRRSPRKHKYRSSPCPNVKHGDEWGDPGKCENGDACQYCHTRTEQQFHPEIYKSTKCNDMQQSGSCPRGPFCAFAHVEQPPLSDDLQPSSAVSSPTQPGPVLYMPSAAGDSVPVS
Oligonucleotide,bound/input enrichment [ratio]
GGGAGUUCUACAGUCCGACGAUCGACUAUACAAUCCCAGAUGAGUAUAGAAUUGGACCAUAUCAGCCCAAUGUUCCUGUUGGUAUAGACUAUGUGAUACCUAAAACAGGGUUUUACUGUAAGCUGUGUUCACUCUUUUAUACACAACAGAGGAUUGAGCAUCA,0.0923
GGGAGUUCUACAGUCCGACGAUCGACCCCAUGGCAUCCCCCAGAACCGUAACUAUUGUGGCCCUCUCAGUGGCCCUGGGACUCUUCUUUGUUUUCAUGGGGACUAUCAAGCUGACCCCCAGGCUCAGCAAGGAUGCCUACAGUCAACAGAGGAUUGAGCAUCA,0.124
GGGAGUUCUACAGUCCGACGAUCGUACCAGUGAAGGACAAGAAACUUCUGGAGGUCAAACUGGGGGAGCUGCCAAGCUGGAUCUUGAUGCGGGACUUCAGUCCUAGUGGCAUUUUCGGAGCGUUUCAAAGAGGUUACUACCGGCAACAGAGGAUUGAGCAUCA,0.185
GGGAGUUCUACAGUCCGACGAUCGGAUGGCACAGCUUCUGGAUCUAUCUGUUGAUGAGUCCGAAGCCUUUCUCUCAAAUCUAGUAGUUAACAAGACCAUCUUUGCUAAAGUAGACAGAUUAGCAGGAAUUAUCAACUUCCAGACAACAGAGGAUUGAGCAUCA,0.572
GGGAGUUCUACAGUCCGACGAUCCCACAGCAGCAGCCAGGAGAAGCCUAUUCAGCUAUGCCUCGGGCUCAGCCAUCCUCUGCUUCUUAUCAGCCAGUGCCAGCAGACCCUUUUGCCAUUGUUUCCAGAGCCCAGCAGAUGGUUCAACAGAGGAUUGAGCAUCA,0.132
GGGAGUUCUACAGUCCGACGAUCGGCAACACUCCUUGCAGAUCCAGAAACUGAGGCACAAUAGGGUUAUGACUUGCUCAAGAAUAUGUAGCUGCUAGGGGGUAAAUCAAGGCAUCACAAUUUCUGUUCAGCGGGCAGGAAUAGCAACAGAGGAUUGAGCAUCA,2.61
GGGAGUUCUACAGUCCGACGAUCAAAGAUAUCAUUACCAAGGUUGCCAAUGUGGAACUAUACUACAGAGCAAUACAGUUCUACUUAGAAUUCAAGCCUCUGUUGUUAAAUGAUUUGCUGAUGGUGCUGUCUCCACGGUUGGAUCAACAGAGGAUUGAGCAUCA,0.455
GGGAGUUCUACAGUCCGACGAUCUUUGUUUGUAACUUAUCUGUAAAAGGUUCCCCCCCCCUACUGUCAAAAAAUAUGCAUGUAUAGUAAUUAGGACUUCAUUCCUCCAUGUUUUCUUCCCUUAUCUUACUGUCAUUGUCCUUACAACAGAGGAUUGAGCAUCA,2.48
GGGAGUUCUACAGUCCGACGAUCCUCCCUCAACCAAUAUAUAGACACAUAGCAUCUUUCCUGUCAGUCUUCAAACUAGUAUUAAUAGGCUUAAUAAUUGUUGGCAAGGAUCCUUUUGCUUUCUUUGGCAUGCAAGCUCCUAGCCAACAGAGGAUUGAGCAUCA,75.6
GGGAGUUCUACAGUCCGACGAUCGGGAACAACAAUCAAAGUAAACCAGGCUUCCUGAGGAAGAAUCAUUAUACAAACACCAAACUAGAGGUGAAAAAAAUCCCCCAGGAAUUGAACAACAUUACCAAGCUCAACGAACACUUCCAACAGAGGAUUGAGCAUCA,0.601
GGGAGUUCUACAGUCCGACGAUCGUUAGCCAAUCAUUGCAGCAUUACUUAGAGCUCGGAAGGCAAGAGCUUUUUAAGAUUCUGCAUAGUAUUUUGUUAAAUGGCGAAACCCGUGAGGCUGCUCUCAGUUACAUGGCGGCUGUCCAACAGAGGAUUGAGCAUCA,1.14

# Series 3
# Target: RNA binding protein fox-1 homolog 2, RRM domain, GST-SBP tag (RBFOX2, Homo sapiens, UniProt O43251-10, residues 100-194)
# Technique: RNA Bind-n-Seq
# Form: RNA
# Medium: in vitro
# Concentration: 365 nM
# Notes: natural RNA segment, single round, ends assumed
# Baseline: no-protein control
# Direction: higher = stronger binding
# Residues (chain): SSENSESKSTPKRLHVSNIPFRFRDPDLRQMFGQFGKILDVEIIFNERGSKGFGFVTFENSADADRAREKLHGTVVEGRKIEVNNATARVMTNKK
Oligonucleotide,RBNS enrichment (R)
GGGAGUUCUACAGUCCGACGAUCGGCUGGUCUCAGGCUGACACUCGAAGGGUAGUAGAAAUAUCCCUUCUGGCCUAUUGUCUGCUUCGCUGUGUAGGUAGCCUGACUUGACAGAGGUUUCUCCUGGUUUUCCUUGGAAUUCUCGGGUGCCAA,0.2
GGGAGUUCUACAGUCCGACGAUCUCCUGCUGACCCCUCCUGGACGGGCUGGAGCUGGGCUCCUGCCUUUGCUGCUAACACUGGAGGCGGUGUUCCUAACUGCAGUGUGCUGCUUACACCUCCCCGCGUGGGUAUGGAAUUCUCGGGUGCCAA,0.48
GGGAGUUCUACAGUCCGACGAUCAUUGUGUGGCUUUCUGAGUAUUUGAACCCCAGUCCUGUGUCACCUUCCUUUUUCCUUCUAUGUCCCCUCUCUGCGGGGGGGGCGCUGAGGCUGAGGGGGAGCUGCGUCUUUGGAAUUCUCGGGUGCCAA,0.19
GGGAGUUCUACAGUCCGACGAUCGCUCACAUGCACCUCACUAGGGUUUGUGACCAGGGUCUGGAUGAGCUUGAAUUUGAAUGAAUUGAGUUUGUAUUUCUAGAACCCUGGGUUUUUACAUGUUUGGUCUUUUUUGGAAUUCUCGGGUGCCAA,2.02
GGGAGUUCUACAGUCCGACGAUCCAAAAAAAAAAACAAAAAACAAAAAACAAAAAACAAAAAUGUUGUCACACUGGAAAUUGUACAUUUUUUUAAAGAAAAGGUAUAGUUUUAUAACUGAGAUGUACCUAAAUUGGAAUUCUCGGGUGCCAA,0.94
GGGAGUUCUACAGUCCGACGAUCUGUAACACAGCUGUAGCUGCCUAGAAUGCUCUGUAUACUUUAUAUUAAAAAUGCUCUGCAUUUCUUCCAGUGCAAUGAAAUUCAUAUGGUGUCCCACCUUAUUUAAUGAUUGGAAUUCUCGGGUGCCAA,0.454
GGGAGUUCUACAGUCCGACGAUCCUGGGAUUACAGGCGUGAGCCACCGUGCCUGCCCCAGAAUGGUUUUUAAAGCCACAGUUGAGAGGCCACCCAUUGCCCGGCGCCUGGACAGUGAUCAUCUUGUUCAUCUUUGGAAUUCUCGGGUGCCAA,0.365
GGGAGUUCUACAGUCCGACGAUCAGGUAAACGGAAGGGGCGUCGUUGUCUUUAAGGUGAGGCGGCCAAGCACUGCUCCGUAUAUAAGUUAAUUUGUAAAUCCGGAGCAGACGGCAUGCUAAGUCCUGUAAUUCUGGAAUUCUCGGGUGCCAA,2.68
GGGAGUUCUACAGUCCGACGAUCCAAGCCUUUUCUGGAUCCAGCCAUCAAGGACAUGUUUGUGGUGUGAUGCACACUUUUGCAAGCGUGUAAGAUGUUACCUGGUUUGUCUCUUUUGGAAAACAAAAAUCAGAUGGAAUUCUCGGGUGCCAA,0.389

# Series 4
# Target: Ras GTPase-activating protein-binding protein 1, RRM domain (G3BP1, Homo sapiens, UniProt Q13283)
# UniProt Q13283, sequence (whole entry, looked up): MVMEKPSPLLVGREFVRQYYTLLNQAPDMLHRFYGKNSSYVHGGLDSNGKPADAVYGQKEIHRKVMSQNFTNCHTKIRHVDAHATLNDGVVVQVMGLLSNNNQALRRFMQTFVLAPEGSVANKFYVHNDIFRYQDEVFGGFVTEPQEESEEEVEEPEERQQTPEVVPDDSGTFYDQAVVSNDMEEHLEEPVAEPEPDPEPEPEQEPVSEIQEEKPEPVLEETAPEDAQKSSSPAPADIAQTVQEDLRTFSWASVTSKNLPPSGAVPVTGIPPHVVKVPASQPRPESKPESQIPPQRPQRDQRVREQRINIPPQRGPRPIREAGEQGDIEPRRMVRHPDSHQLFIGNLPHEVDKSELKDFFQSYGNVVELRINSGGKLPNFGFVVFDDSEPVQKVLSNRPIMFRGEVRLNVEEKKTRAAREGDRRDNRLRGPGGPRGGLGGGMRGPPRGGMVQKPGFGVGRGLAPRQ
# Technique: RNA Bind-n-Seq
# Form: RNA
# Medium: in vitro
# Concentration: 1 µM
# Notes: whole 134-nt RNA, ends assumed
# Together with: 150 mM KCl
# Baseline: input library
# Direction: higher = stronger binding
Oligonucleotide,log2 enrichment
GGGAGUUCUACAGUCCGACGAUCCACAGACAACACGCACCCACACAGACACAGAGGGAAGGGGUUGGGAUGGGGACAGGGUGCACAGCAGGGCGGGGUAGGGCCCCAGCCCCUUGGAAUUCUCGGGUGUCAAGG,-0.34
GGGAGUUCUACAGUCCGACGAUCGCAGGAAGUAAAAACAAAUCGAAAUGCUUCGGAUAGUGGCAGGGGUGGGGGUUGCUAAGGAAAGGGUGGGAUGGGAGUGGGUAAAGAGUUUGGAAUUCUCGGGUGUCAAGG,1.27
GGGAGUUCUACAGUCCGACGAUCGUCCUGUGCUACACAUCGUAUGUACCGAAUCGGGGUGGGGAAAAAAAGGGGUUUGGGGAAAGUAUUAUGUUACGCCGUUCGGAUCUGCACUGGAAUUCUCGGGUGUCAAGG,0.914
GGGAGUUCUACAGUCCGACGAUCCACAGACAACACGCACCCACACAGACACAGAGGGAAGGGGUUGGGAUGAAAACAGGGUGCACAGCAGGGCGGGGUAGGACCCCAGCCCCUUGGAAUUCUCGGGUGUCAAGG,-0.214
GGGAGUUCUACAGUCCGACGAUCUGGGAGGUGGAUUUUGUUUAUUUUUUUAGCUCAUUUCCAGGGGUGGGAAUUUUUUUUUAAUAUGAGUCAUGAAUAAAGUUGUUUUUGAAAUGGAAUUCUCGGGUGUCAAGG,1.75
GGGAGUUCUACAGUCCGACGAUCGCAGGAAGUAAAAACAAAUGGAAAUGCUUCGGAUAGUGGCAGGGGUGGGGGUUGCUAAGGAAAGGGUGGGAUGGGAGUGGGUAUAGAGUUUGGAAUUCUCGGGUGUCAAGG,0.77
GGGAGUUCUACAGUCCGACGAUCCCUCAAGUCCUGUGCUACACAUCGUAUGUACCGAAUCGGGCGGGGCGGGGCGGAAAGUAUUAUGUUACGCCGUUCGGAUCUGCACUUCCAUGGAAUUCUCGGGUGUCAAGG,-0.126
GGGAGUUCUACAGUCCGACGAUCCACAGACAACACGCACCCACACAGACACAGAGGGAAGGGGUUGGGCUGGGGACAGGGUGCACAGCAGGGCGGGGUAGGACCCCAGCCCCUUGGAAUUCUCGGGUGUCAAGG,-0.0243
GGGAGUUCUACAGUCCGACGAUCUGGCCCUGGUGGCAUGCAGGGAGGAAGAGGUGGCCUCAUGGAUCGUGGUGGUCCCGGUGGAAUGUUCAGAGGUGGCCGUGGUGGAGACAGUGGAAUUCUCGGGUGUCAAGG,0.728
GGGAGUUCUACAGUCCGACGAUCCUCAAGUCCUGUGCUACACAUCGUAUGUACCGAAUCGGGUGGGGUGGGUGGGGAAAGUAUUAUGUUACGCCGUUCGGAUCUGCACUUCCAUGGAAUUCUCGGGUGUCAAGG,1.04

# A few entries again (series 3):
Oligonucleotide,RBNS enrichment (R)
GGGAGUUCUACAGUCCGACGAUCGGCUGGUCUCAGGCUGACACUCGAAGGGUAGUAGAAAUAUCCCUUCUGGCCUAUUGUCUGCUUCGCUGUGUAGGUAGCCUGACUUGACAGAGGUUUCUCCUGGUUUUCCUUGGAAUUCUCGGGUGCCAA,0.2
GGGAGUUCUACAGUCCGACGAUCUCCUGCUGACCCCUCCUGGACGGGCUGGAGCUGGGCUCCUGCCUUUGCUGCUAACACUGGAGGCGGUGUUCCUAACUGCAGUGUGCUGCUUACACCUCCCCGCGUGGGUAUGGAAUUCUCGGGUGCCAA,0.48
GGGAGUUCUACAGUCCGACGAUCAUUGUGUGGCUUUCUGAGUAUUUGAACCCCAGUCCUGUGUCACCUUCCUUUUUCCUUCUAUGUCCCCUCUCUGCGGGGGGGGCGCUGAGGCUGAGGGGGAGCUGCGUCUUUGGAAUUCUCGGGUGCCAA,0.19
